Assay results from different studies.
Values joined by “and” are separate records of one study, mostly repeats; a detail may differ. ± gives the spread as reported.

The serum ALT of `C=Cc1c(C)c2cc3nc(c(CC(=O)[O-])c4[n-]c(cc5nc(cc1[n-]2)C(C)=C5CC)c(C)c4C(=O)[O-])C(CCC(=O)[O-])C3C.[Cu+2].[Na+].[Na+].[Na+]` (stereo not drawn) is reported as 58.3 ± 13.9 U/L (Wistar rat, male; oral, 1000 mg/kg daily, 28 days).
The tissue uptake of `CC[C@H](C)[C@H](NC(=O)[C@H](CCCCN)NC(=O)CNC(=O)[C@H](CC(C)C)NC(=O)[C@H](Cc1ccccc1)NC(=O)[C@H](CCCCN)NC(=O)[C@H](CO)NC(=O)[C@H](Cc1ccccc1)NC(=O)[C@H](Cc1c[nH]c2ccccc12)NC(=O)[C@H](CCC(N)=O)NC(=O)[C@@H](NC(=O)[C@H](Cc1ccccc1)NC(=O)CCCCCNC(=O)CN1CCN(CC(=O)O)CCN(CC(=O)O)CCN(CC(=O)O)CC1)C(C)C)C(=O)N[C@@H](CCC(=O)O)C(=O)N1CCC[C@H]1C(=O)N[C@@H](CC(=O)O)C(=O)N[C@H](C(=O)N[C@@H](CO)C(=O)N[C@@H](CCC(N)=O)C(=O)N[C@H](C(=O)N[C@@H](CCC(N)=O)C(=O)N[C@@H](CC(=O)O)C(=O)N1CCC[C@H]1C(=O)N[C@@H](CC(N)=O)C(=O)N[C@@H](CC(=O)O)C(=O)N[C@@H](CCC(N)=O)C(=O)N[C@@H](Cc1ccc(O)cc1)C(=O)N[C@@H](CCC(=O)O)C(=O)N1CCC[C@H]1C(=O)N[C@@H](Cc1ccccc1)C(=O)O)C(C)C)C(C)C` [copper-64 labelled] is reported as 2.62 ± 0.4 %ID/g (GZMB-/- mouse bearing CT26 tumour, lung; dose not given, 2 h, vehicle-treated).
Under “organ-to-brain weight ratio”, `O=C1NC2(CC2)COc2ncc(F)cc2[C@H]2COCCN2c2ccn3ncc1c3n2` is recorded as 38.2 ± 8.16% (Sprague-Dawley rat, female, spleen; oral, 5 mg/kg/day, 4 weeks dosing, end of recovery).
`C=CC(=O)Nc1cccc(Cn2ncc3cnc(Nc4cnn(CCOC)c4)nc32)c1` has a serum LDL of 0.1 ± 0.04 mM (female Sprague-Dawley rat; oral, 180 mg/kg/day, day 28, 28-day subacute toxicity).
`CC[C@H](C)[C@H](N)C(=O)N[C@@H](CCCNC(=N)N)C(=O)N[C@H](C(=O)N[C@@H](Cc1c[nH]c2ccccc12)C(=O)N[C@@H](CCCCN)C(=O)N[C@@H](CCCCN)C(=O)N[C@H](C(=O)N[C@H](C(=O)N[C@@H](CCCNC(=N)N)C(=O)N[C@@H](CCCCN)C(=O)N[C@@H](Cc1c[nH]c2ccccc12)C(=O)N[C@@H](CCCCN)C(=O)N[C@@H](C)C(=O)N[C@H](C(=O)N[C@@H](Cc1c[nH]c2ccccc12)C(=O)N[C@@H](Cc1c[nH]cn1)C(N)=O)[C@@H](C)CC)C(C)C)[C@@H](C)CC)C(C)C`: “elution acetonitrile content” 44.7% (reversed-phase UPLC; C18 column, TFA).
With `CSCC[C@H](N)C(=O)N[C@@H](C)C(=O)N[C@@H](CCCNC(=N)N)C(=O)N[C@@H](CCCNC(=N)N)C(=O)N[C@@H](CC(=O)O)C(=O)N[C@@H](CCCCN)C(=O)N[C@H](C(=O)N[C@@H](CC(=O)O)C(=O)N[C@@H](Cc1ccccc1)C(=O)N[C@@H](C)C(=O)N[C@@H](CCCNC(=N)N)C(=O)N[C@@H](CCCNC(=N)N)C(=O)N[C@@H](CCCNC(=N)N)C(=O)N[C@@H](CCCNC(=N)N)C(=O)NCCCCCC(=O)NCCCCC(NC(=O)CCCCCNC(=O)[C@H](CCCNC(=N)N)NC(=O)[C@H](CCCNC(=N)N)NC(=O)[C@H](CCCNC(=N)N)NC(=O)[C@H](CCCNC(=N)N)NC(=O)[C@H](C)NC(=O)[C@H](Cc1ccccc1)NC(=O)[C@H](CC(=O)O)NC(=O)[C@@H](NC(=O)[C@H](CCCCN)NC(=O)[C@H](CC(=O)O)NC(=O)[C@H](CCCNC(=N)N)NC(=O)[C@H](CCCNC(=N)N)NC(=O)[C@H](C)NC(=O)[C@@H](N)CCSC)[C@@H](C)O)C(=O)NCCCCC(NC(=O)C(CCCCNC(=O)CCCCCNC(=O)[C@H](CCCNC(=N)N)NC(=O)[C@H](CCCNC(=N)N)NC(=O)[C@H](CCCNC(=N)N)NC(=O)[C@H](CCCNC(=N)N)NC(=O)[C@H](C)NC(=O)[C@H](Cc1ccccc1)NC(=O)[C@H](CC(=O)O)NC(=O)[C@@H](NC(=O)[C@H](CCCCN)NC(=O)[C@H](CC(=O)O)NC(=O)[C@H](CCCNC(=N)N)NC(=O)[C@H](CCCNC(=N)N)NC(=O)[C@H](C)NC(=O)[C@@H](N)CCSC)[C@@H](C)O)NC(=O)CCCCCNC(=O)[C@H](CCCNC(=N)N)NC(=O)[C@H](CCCNC(=N)N)NC(=O)[C@H](CCCNC(=N)N)NC(=O)[C@H](CCCNC(=N)N)NC(=O)[C@H](C)NC(=O)[C@H](Cc1ccccc1)NC(=O)[C@H](CC(=O)O)NC(=O)[C@@H](NC(=O)[C@H](CCCCN)NC(=O)[C@H](CC(=O)O)NC(=O)[C@H](CCCNC(=N)N)NC(=O)[C@H](CCCNC(=N)N)NC(=O)[C@H](C)NC(=O)[C@@H](N)CCSC)[C@@H](C)O)C(N)=O)[C@@H](C)O` (stereo partly drawn) the tissue distribution was 60.4% and 38.3% and 43.1% (C57BL/6 mouse female, stomach; dose not given, 6 h; relative to: total).
`CC(C)C[C@H](NC(=O)[C@H](Cc1ccc(O)cc1)NC(=O)[C@H](Cc1c[nH]cn1)NC(=O)[C@H](CC(=O)O)NC(=O)[C@@H](NC(=O)[C@H](C)NC(=O)[C@H](CC(C)C)NC(=O)CNC(=O)CNC(=O)[C@@H](NC(=O)[C@@H](NC(=O)[C@H](CCCCN)NC(=O)CNC(=O)[C@@H](NC(=O)[C@H](CCCCN)NC(=O)[C@H](CCCCN)NC(=O)[C@H](C)NC(=O)[C@H](CCCNC(=N)N)NC(=O)[C@H](CC(N)=O)NC(=O)[C@H](Cc1ccccc1)NC(=O)[C@H](Cc1c[nH]c2ccccc12)NC(=O)[C@H](CCCCN)NC(=O)[C@H](CCCCN)NC(=O)[C@H](Cc1c[nH]c2ccccc12)NC(=O)CN)C(C)C)[C@@H](C)O)C(C)C)C(C)C)C(N)=O` — result for “chronic toxic concentration”: 5 µM (zebrafish embryos 4 hpf, E3 medium; 24 h).
For `O=C(c1cc(Cc2n[nH]c(=O)c3ccccc23)ccc1F)N1CC(CNC2CC2)C1`, the tumour concentration was greater than 100 ng/g (athymic nude mouse, sample A PDX, tumour; oral, 12.5 mg/kg, 24 h).
`CC(C)[C@@H]1NC(=O)CNC(=O)[C@H](CC(N)=O)NC(=O)[C@H](CCCNC(=N)N)NC(=O)[C@H](Cc2ccc(O)cc2)NC(=O)[C@H](C(C)C)NC(=O)[C@@H](NC(=O)[C@@H](NC(=O)[C@H](CC(N)=O)NC(=O)[C@H](Cc2c[nH]c3ccccc23)NC(=O)[C@H](C)NC(=O)[C@H](Cc2ccccc2)NC(=O)CNC(=O)[C@H](CCCCN)NC(=O)[C@H](Cc2ccccc2)NC(=O)[C@H](Cc2ccccc2)NC(=O)[C@H](CCCCN)NC(=O)OCC2c3ccccc3-c3ccccc32)C(C)C)CSSC[C@@H](C(=O)N[C@@H](Cc2c[nH]cn2)C(=O)N[C@@H](CCCNC(=N)N)C(=O)N[C@@H](CCCNC(=N)N)C(=O)N[C@@H](C)C(=O)N[C@@H](CC(N)=O)C(N)=O)NC(=O)[C@H](C(C)C)NC(=O)[C@H](CCCNC(=N)N)NC1=O` gave a lymphocytes of 74.4 ± 1.2% (ICR mouse, blood; intramammary, 5 mg/kg, day 5, 3 d dosing).
For `CC(C)=CCC/C(C)=C/CCn1cc(CC(C)(P(=O)(O)O)P(=O)(O)O)nn1`, the bile concentration was 394 ng/mL (CD-1 mice, pooled bile; intravenous, 0.3 mg/kg, 24 h).
For `COc1ccc(CNc2ccc3c(c2)S(=O)(=O)C=C3)cc1`, “red cell distribution width SD” read 34.9 fL (male C57BL/6 mice, blood; intraperitoneal, 10 mg/kg, day 8, group average).
For `Cn1nc(NS(C)(=O)=O)c2c(Cl)ccc(-n3c([C@H](Cc4cc(F)cc(F)c4)NC(=O)Cn4nc(C(F)F)c5c4C(F)(F)[C@@H]4C[C@H]54)nc4nc(OCCC(F)(F)F)ccc4c3=O)c21`, the tmax was 8 h (human, plasma; oral, 625 mg single dose, powder in bottle, median).

For quick reference, copied from above:
`C=CC(=O)Nc1cccc(Cn2ncc3cnc(Nc4cnn(CCOC)c4)nc32)c1` has a serum LDL of 0.1 ± 0.04 mM (female Sprague-Dawley rat; oral, 180 mg/kg/day, day 28, 28-day subacute toxicity).
